Assay results collected from several papers.
Each numbered part is a random draw from the data of one study; scales do not carry over between parts. Values joined by “and” are separate records of one study, mostly repeats; a detail may differ.

Study 1
Host: female CD-1 mouse
Matrix: plasma
Route: oral
Dose: 10 mg/kg
Quantity: AUC(0-t)
Cc1ccc(O)c(C)c1-c1cnc2[nH]c(-c3cnc(N4CCC(CN5CCN(c6ccc(NC7CCC(=O)NC7=O)cc6F)CC5)CC4)nc3)cc2c1C#N (centres unmarked): 1840 ng·h/mL
Cc1ccc(O)c(C)c1-c1cnc2[nH]c(-c3cnc(N4CC5(CC(CN6CCN(c7ccc(NC8CCC(=O)NC8=O)cc7F)CC6)C5)C4)nc3)cc2c1C#N (centres unmarked): 532 ng·h/mL
Cc1ccc(O)c(C)c1-c1cnc2[nH]c(-c3cnc(N4CCC(CN5CCN(c6ccc7c(c6)CN(C6CCC(=O)NC6=O)C7=O)CC5)CC4)nc3)cc2c1C#N (centres unmarked): 713 ng·h/mL
Cc1ccc(O)c(C)c1-c1cnc2[nH]c(-c3cnc(N4CCC(CCN5CCN(c6ccc(NC7CCC(=O)NC7=O)cc6F)CC5)CC4)nc3)cc2c1C#N (centres unmarked): 1790 ng·h/mL
Cc1ccc(O)c(C)c1-c1cnc2[nH]c(-c3cnc(N4CCC(CN5CCC(c6ccc(NC7CCC(=O)NC7=O)cc6F)CC5)CC4)nc3)cc2c1C#N (centres unmarked): 1260 ng·h/mL

Further values, each from its own experiment
C=CC(=O)N1CCN(c2nc(OC[C@@H]3CCCN3C)nc3c2CCN(c2cccc4cccc(C)c24)C3)C[C@@H]1CC#N
normalized BRET (GTPase KRas (KRAS, Homo sapiens, UniProt P01116, G12D); binding, competitor, NanoBRET; HEK293; 6.67 µM): 36.2% and 27.9%

Cc1nc(C)c(C=[N+]([O-])C(C)(C)C)nc1C
corridor crossing time (footprint test; MPTP-induced Parkinson's disease mouse model; 90 mg/kg, trial 1): 5.13 s and 6.47 s and 7.08 s and 5.34 s and 5.03 s and 4.72 s and 6.44 s

CN1CCC[C@H]1COc1nc2c(c(N3CCN(C(=O)C(F)(F)F)[C@@H](CC#N)C3)n1)CCN(c1cccc3cccc(Cl)c13)C2
IC50 (GTPase KRas (KRAS, Homo sapiens, UniProt P01116, G13D); target engagement in cells, BRET): 6 µM

Cn1cc(-c2cccc(CN3CCC4(CC3)COc3c4ccc4c3CN([C@H]3CCC(=O)NC3=O)C4=O)c2)cn1
tumour volume (Crbn I391V mouse, MC-38 tumour; oral, 30 mg/kg once daily, day 14): 265 mm3 and 402 mm3 and 80.1 mm3 and 274 mm3 and 201 mm3

O=C(CCCCn1ccnc1Cn1ccc2ccc(CNCc3[nH]c4ccccc4c3C3NC(=O)c4ccc(O)cc43)cc21)NCCOCCOCCOCCNC(=O)CCc1ccc2n1[B-](F)(F)[N+]1=C(c3ccc[nH]3)C=CC1=C2 (centres unmarked)
EC50 (GTPase HRas (HRAS, Homo sapiens, UniProt P01112, G12V); target engagement, NanoBRET; HEK293 cells): > 1 µM

CN1CCC[C@H]1COc1nc2c(c(N3CCN(C(=O)C4CC4)[C@@H](CC#N)C3)n1)CCN(c1cccc3cccc(Cl)c13)C2
normalized BRET (GTPase KRas (KRAS, Homo sapiens, UniProt P01116, Q61L); binding, competitor, NanoBRET; HEK293; 1.69 nM): 92% and 97.8% and 98.2%

Excerpt of the above (further values, each from its own experiment):
O=C(CCCCn1ccnc1Cn1ccc2ccc(CNCc3[nH]c4ccccc4c3C3NC(=O)c4ccc(O)cc43)cc21)NCCOCCOCCOCCNC(=O)CCc1ccc2n1[B-](F)(F)[N+]1=C(c3ccc[nH]3)C=CC1=C2 (centres unmarked)
EC50 (GTPase HRas (HRAS, Homo sapiens, UniProt P01112, G12V); target engagement, NanoBRET; HEK293 cells): > 1 µM

CN1CCC[C@H]1COc1nc2c(c(N3CCN(C(=O)C4CC4)[C@@H](CC#N)C3)n1)CCN(c1cccc3cccc(Cl)c13)C2
normalized BRET (GTPase KRas (KRAS, Homo sapiens, UniProt P01116, Q61L); binding, competitor, NanoBRET; HEK293; 1.69 nM): 92% and 97.8% and 98.2%
